Measurements pooled from the literature.
Parts stem from different laboratories: compare values within a part only. Positions count from the first letter of the parent shown.

Series 1
Target: Interferon regulatory factor 7, full length, phosphomimetic (IRF7, Homo sapiens, UniProt Q92985, residues 1-503, S471D/S472D/S475D/S476D/S477D/S483D/S484D/S487D)
Technique: protein-binding microarray
Form: double-stranded DNA, one strand shown
Sample: in vitro
Tested at: 2200 nM top
Notes: 60-bp whole probe
Added: salmon DNA 0.4 mg/ml
Reference: random background probes
Direction: higher = stronger binding
All sequences stand within: GCCTAGCAC … GTCTTGATTCGCTTGACGCTGCTG
Residues (chain): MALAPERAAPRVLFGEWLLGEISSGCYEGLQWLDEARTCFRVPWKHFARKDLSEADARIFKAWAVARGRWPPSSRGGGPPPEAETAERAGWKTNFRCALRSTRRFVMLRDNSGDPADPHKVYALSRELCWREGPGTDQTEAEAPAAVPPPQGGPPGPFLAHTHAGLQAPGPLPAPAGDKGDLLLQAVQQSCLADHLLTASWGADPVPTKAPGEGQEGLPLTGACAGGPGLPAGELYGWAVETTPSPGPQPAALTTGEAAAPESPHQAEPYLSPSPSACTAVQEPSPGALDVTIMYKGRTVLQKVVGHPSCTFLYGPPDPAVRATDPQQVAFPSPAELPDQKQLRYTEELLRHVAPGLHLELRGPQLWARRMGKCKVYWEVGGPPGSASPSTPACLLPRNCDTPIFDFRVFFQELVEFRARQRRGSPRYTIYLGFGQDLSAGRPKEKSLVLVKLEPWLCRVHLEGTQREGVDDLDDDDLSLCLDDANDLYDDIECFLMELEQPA
Strand | fitted relative affinity [z-score]
TTAGGTTTCCTACTGATTTAGTGCTAG | 1.04
TTAGAACTGGGGTTTCTATTAGTGCTA | 0.431
GACGCTTTCGACACTGGGGACGTGCTA | 3.49
GTCGATATCAGTCTCGAGACGTGCTAG | 0.827
CTAGGTTTCGGACTGGGTTAGTGCTAG | 3.26
GACGGTTTCGGTTCCGGGCCGTGCTAG | 10.9
GACGATTTCGGGTTTCGTGACGTGCTA | 4.97
GAGGATTTCAGTATCGAGACGTGCTAG | 0.49

Series 2
Target: CCNE2, cyclin fold, Cln2 fusion (human)
Technique: yeast growth competition, sequencing
Sample: yeast
Notes: weak parent motif
Reference: not given
Direction: higher = stronger binding
Starting sequence: DNAH7 docking peptide (human); HELFQRLDFDNDG
Variant | normalised enrichment score
R6A | -0.235
Q5A | 0.106
H1A | -0.0238
D8A | -0.0231
D10A | -0.247
G13A | -0.503

Series 3
Target: ABI1, truncated, D143A, DHFR fusion (Arabidopsis thaliana)
Technique: DHFR PCA, deep sequencing
Sample: yeast
Notes: methotrexate growth selection, single substitutions
Added: (+)-ABA 58 µM
Reference: wild-type fitted maximum
Direction: higher = stronger binding
Starting sequence: PYL1, truncated, DHFR fusion (Arabidopsis thaliana); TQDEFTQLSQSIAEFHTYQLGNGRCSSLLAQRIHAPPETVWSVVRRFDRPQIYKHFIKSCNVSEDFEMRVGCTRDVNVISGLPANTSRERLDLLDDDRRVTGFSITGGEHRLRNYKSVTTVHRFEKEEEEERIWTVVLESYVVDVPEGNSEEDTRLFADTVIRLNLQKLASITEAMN; partner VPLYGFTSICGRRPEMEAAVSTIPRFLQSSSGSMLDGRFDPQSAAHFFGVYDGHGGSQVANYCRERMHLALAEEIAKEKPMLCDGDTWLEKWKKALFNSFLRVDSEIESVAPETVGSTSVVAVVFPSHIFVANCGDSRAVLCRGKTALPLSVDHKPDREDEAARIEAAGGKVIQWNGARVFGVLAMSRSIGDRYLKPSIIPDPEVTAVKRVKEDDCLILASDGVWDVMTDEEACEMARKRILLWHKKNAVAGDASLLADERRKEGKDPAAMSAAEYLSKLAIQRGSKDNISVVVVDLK
Variant | relative binding score
V142K | 55.8%
R24C | 74.4%
E129P | 98%
L112D | -6.11%
P146Y | 10.8%
G108Y | -22.1%
R45P | -11.3%
V137W | -0.946%

Further values, each from its own experiment
Substance | target | test | test system | setting | scale | quantity | result
PhoQ, residues 284 288 289 292 302 303 NLMGRA | PhoP, residues 12 14 15 18 19 NMSSL (Escherichia coli, UniProt P23836) | Sort-seq, refers to: YFP reporter | E. coli | PhoQ-PhoP variant library, added: 10 µM Mg2+ | reference: high Mg2+ state, higher = stronger signaling | fold induction | 4.31
